Published values collected from several papers.
Each line is one published result; not all experiments were run side by side. Several values in a cell are separate wells, animals, samples, runs or records. Numbers after ± are the reported error.

C[C@@H]1O[C@@H](O[C@H]2[C@H](O[C@H]3CC[C@@]4(C)C(CC[C@]5(C)C4CC=C4C6CC(C)(C)CC[C@]6(C(=O)O[C@@H]6O[C@H](CO)[C@@H](O)[C@H](O)[C@H]6O)CC[C@]45C)[C@]3(C)CO)OC[C@H](O)[C@@H]2O)[C@H](O)[C@H](O[C@@H]2OC[C@@H](O)[C@H](O)[C@H]2O)[C@H]1O (some centres unmarked)  glucose consumption (HepG2, palmitic acid-induced insulin resistance; 2.5 µM, 24 h): 5.67 ± 0.76 mM
CN(C(=NN=C(c1ccccc1)c1ccccn1)[S][Ga]([Cl])[Cl])C1CCCCC1  intracellular ROS level (HepG2; H2DCF-DA flow cytometry; 5 µM, 24 h; reference: control): 27.1%
C[n+]1cn(C2OC(COP(=O)([O-])OP(=O)(O)OP(=O)(O)OCC3OC(n4cnc5c(=O)[nH]c(N)nc54)C(O)C3O)C(O)C2O)c2nc(NCc3cc(-c4ccccc4)no3)[nH]c(=O)c21 (centres unmarked)  relative protein expression (HEK293 transfected with capped mRNA; luciferase expression; reference: m7GpppG-capped mRNA): 1.64 and 1.6
COc1ccc(CN(C(=O)c2sc3ccccc3c2Cl)C2CCC(N)CC2)cc1-c1ccc(C#N)cc1 (centres unmarked)  Amax (C3H10T1/2; Hh signalling reporter, agonist; reference: Hh protein): ~35%
COc1cc(CNC(=O)C[C@H](C)CCC=C(C)C)ccc1OCc1cn(-c2cccc(Cl)c2)nn1  growth percent (OVCAR-8 ovarian cancer cells; SRB; 10 µM, 48 h): 57.3%
CC(C)(C)CC(C)(C)Nc1c(-c2ccc3c(c2)OCO3)nc2cnccn12  cell migration (CT26; scratch; 50 µM, 24 h; reference: untreated): 28.8%
COc1ccc([C@@H]2CC(=O)c3c(O)cc(O[C@@H]4O[C@H](CO[C@@H]5O[C@@H](C)[C@H](O)[C@@H](O)[C@H]5O)[C@@H](O[C@H]5O[C@H](CO)[C@@H](O)[C@H](O)[C@H]5O)[C@H](O)[C@H]4O)cc3O2)cc1O  cell count (A549; trypan blue exclusion; 100 µg/mL, 72 h): 17100 ± 334
Cc1nn(-c2ccc(S(=O)(=O)N[C@H](CO)CC(C)C)cc2)c2nn3nnnc3nc12  necrotic cells (HT-29; PI/Hoechst staining; 2 µM, 24 h): 26.5 ± 0.7%
CC(=C(c1ccc(O)cc1)c1ccc(Cl)cc1)c1ccc(Cl)cc1  growth inhibition (NCI-60 tumour cell lines; 10 µM, mean over cell lines): ≥ 100%
CCC12CCc3c(c4ccccc4n3C)CCN(CC3OC31)C2 (centres unmarked)  TLR4 and MyD88 protein level (BV-2; western blot; concentration not given, with: LPS): inhibited
CCC(=C(c1ccc(Cl)cc1)c1ccc(OCCN2CCCCC2)cc1)c1ccc(Cl)cc1  growth inhibition (NCI-60 tumour cell lines; 10 µM, mean over cell lines): 26.6%
CCc1ccc(-c2cn([C@@H]3O[C@H](CO)[C@@H](O)[C@H]3O)c3ncnc(N)c23)cc1  EC50 (HEK; cytotoxicity): > 200 µM
CCC(=C(c1ccc(Cl)cc1)c1ccc(OCCN2CCOCC2)cc1)c1ccc(Cl)cc1  growth inhibition (NCI-60 tumour cell lines; 10 µM, mean over cell lines): 11%
CC/C=C\C/C=C\C/C=C\C/C=C\C/C=C\C/C=C\CCC(=O)Nc1ccn(C2OC(CO)C(O)C2(F)F)c(=O)n1 (centres unmarked)  TGI (U-251; NCI60 screen): 15.2 µM
CSC(=NN=C(C)c1ccc(S(=O)(=O)N2CCC(C)CC2)cc1)N(C)C  apoptotic cells late (HepG2; annexin V/PI staining; IC50, 72 h): 15%
C=C1C(=O)O[C@H]2[C@H]1CCC(COC(=O)c1cn(C)c3ccccc13)=C1CC[C@@](C)(O)[C@@H]12  viability (M9-ENL1; cell growth or viability, flow cytometry; 20 µM, 24 h): 4%
CC[C@H](C)[C@H](NC(=O)[C@H](Cc1ccccc1)NC(=O)[C@@H](N)C(C)C)C(=O)N[C@@H](C)C(N)=O  viability (PC-12; Aβ42-induced neurotoxicity, inhibitor, MTT; concentration not given, 6 h, 37 °C, peptide to Aβ42 1:1, with: Aβ42 2 µM; reference: untreated cells): 79.3%
COc1cc(CNC(=O)C[C@H](C)CCC=C(C)C)ccc1OCc1cn(-c2ccc(Cl)c(Cl)c2)nn1  growth percent (SF-295 CNS cancer cells; SRB; 10 µM, 48 h): 80.5%
O=C(/C=C/c1cccc(S(=O)(=O)Nc2ccc(F)cc2F)c1)NO  relative potency (MOPC-315; cell growth; 24 h; reference: belinostat): 0.405
COc1cc(CNC(=O)C[C@H](C)CCC=C(C)C)ccc1OCc1cn(-c2ccccc2F)nn1  growth percent (HCC 2998; SRB; 10 µM, 48 h): 101%
CC(C)[C@@H](NC(=O)[C@H](N)CCCNC(=N)N)C(=O)N[C@H](CCCCN)C(=O)N[C@@H](C(=O)N[C@H](CCCCN)C(=O)N[C@@H](C(=O)N[C@@H](C(=O)N[C@@H](C(=O)N[C@@H](C(=O)N[C@H](CCCNC(=N)N)C(=O)N[C@H](CCCNC(=N)N)C(=O)N[C@H](CCCNC(=N)N)C(=O)N[C@H](CCCNC(=N)N)C(=O)N[C@H](CCCNC(=N)N)C(=O)N[C@H](CCCNC(=N)N)C(=O)N[C@H](CCCNC(=N)N)C(=O)N[C@H](CCCNC(=N)N)C(=O)N[C@H](CCCNC(=N)N)C(N)=O)C(C)C)C(C)C)C(C)C)C(C)C)C(C)C  CD40L expression (human PBMC CD4+ T cells; flow cytometry; 1.25 µM, 72 h, unstimulated): increased
COc1cc(CNC(=O)C[C@H](C)CCC=C(C)C)ccc1OCc1cn(-c2ccccc2[N+](=O)[O-])nn1  growth percent (SR leukaemia cells; SRB; 10 µM, 48 h): 45.1%
Cc1c(C(=O)NNC(=S)Nc2ccc(Cl)cc2)nnn1Cc1nc2ccccc2[nH]1  late apoptotic cells (HepG2; annexin V/PI; concentration not given, 24 h): 25.1%
CC(=NN=c1sc(C(=O)c2ccccc2)nn1-c1ccccc1)c1ccc(S(=O)(=O)N2CCC(C)CC2)cc1  cells in %S (HepG2; flow cytometry; 3.31 µM, 72 h): 34.6%
Cc1ccc(-c2cn([C@@H]3O[C@H](CO)[C@@H](O)[C@H]3O)c3ncnc(N)c23)c(F)c1  EC50 (HEK; cytotoxicity): > 200 µM
CC(C)=CCC1CC(=O)C(C)=CC2C=C(C)CC(c3ccccc3)C2C(=O)C2=C(O)C(C)(CC=C1C)C(=O)C(C)(C)C2=O (centres unmarked)  4E-BP1 phosphorylation (HEp-2; western blot; 10 µM): decreased
CNC(=O)c1ccccc1Oc1nc(Nc2cc(OC)c(OC)c(OC)c2)ncc1Br  uridine uptake (C2C12 myotubes; inhibitor; concentration not given): inhibited
Cc1cc(/N=N/c2ccc(/N=N/c3ccc(O)c(C(=O)O)c3)cc2)c(N)cc1N  mRNA level (primary mouse articular chondrocytes; real-time PCR, measured: Prg4; 25 µM, micromass culture): increased
COc1cc(CNC(=O)C[C@H](C)CCC=C(C)C)ccc1OCc1cn(-c2ccc(C#N)cc2)nn1  growth percent (SR leukaemia cells; SRB; 10 µM, 48 h): 24.7%
[Cl][Pd-]1([Cl])[S]C(Nc2ccccc2)=N[N+]1=Cc1cccs1  cytotoxic concentration (HEL human lung fibroblasts; altered cell morphology, microscopy; confluent cultures): 100 µM
C[C@@H](O)[C@H](NC(=O)[C@@H]1CSSC[C@H](NC(=O)[C@@H](Cc2ccccc2)NC(=O)CCC(C(=O)O)N2CCN(CC(=O)O)CCN(CC(=O)O)CC2)C(=O)N[C@@H](Cc2ccc(O)cc2)C(=O)N[C@H](Cc2c[nH]c3ccccc23)C(=O)N[C@@H](CCCCN)C(=O)N[C@@H]([C@@H](C)O)C(=O)N1)C(=O)O (some centres unmarked) [copper-64 labelled]  internalisation increase (HCT116-SSTR2; 15 min to 4 h, 64Cu-labelled): 59%
CC1=CC(OC(=O)c2ccccc2)C2(COC(=O)c3ccccc3)CCC(=C(C)C)C2C(O)CC2(C)OC2CC1 (centres unmarked)  glucose consumption (HepG2, palmitic acid-induced insulin resistance; 10.0 µM, 24 h): 4.71 ± 0.17 mM
C[C@@H](NC(=O)Cc1ccc(Cl)c(SC2C(=O)CC(c3c(Cl)cccc3Cl)CC2=O)c1)c1cccc2ccccc12 (some centres unmarked)  concentration of maximal ROS induction (B16-F10; 24 h): 25 µM
COc1cc(CNC(=O)C[C@H](C)CCC=C(C)C)ccc1OCc1cn(-c2cccc([N+](=O)[O-])c2)nn1  growth percent (SR leukaemia cells; SRB; 10 µM, 48 h): 82%
COCCNCC(=O)N(CCCCN)CC(=O)N(CC(=O)N(CC(=O)N(CCCCN)CC(=O)N[C@@H](CCCCN)C(=O)N[C@H](CCCCN)C(=O)N[C@@H](CCSC)C(=O)NCCCC[C@H](NC(=O)[C@H](CCSC)NC(=O)[C@@H](CCCCN)NC(=O)[C@H](CCCCN)NC(=O)CN(CCCCN)C(=O)CN(C(=O)CN(Cc1ccc2c(c1)OCO2)C(=O)CN(CCCCN)C(=O)CNCCOC)[C@H](C)c1ccccc1)C(N)=O)[C@H](C)c1ccccc1)Cc1ccc2c(c1)OCO2  onset concentration (H358; gene expression decrease, qRT-PCR, measured: SOX2; 6 days): 10 µM
C=CC(=O)Nc1cc(Nc2nccc(-c3c(-c4cccc(F)c4)n(C)c4ccccc34)n2)c(OC)cc1N(C)CCN(C)C  wound closure (H1975; scratch; concentration not given, 24 h): decreased
COc1cc(CNC(=O)C[C@H](C)CCC=C(C)C)ccc1OCc1cn(-c2ccc([N+](=O)[O-])cc2)nn1  growth percent (OVCAR-4 ovarian cancer cells; SRB; 10 µM, 48 h): 63.8%
O=Cc1c(O)ccc2ccccc12  log2 fold change (HUVEC; RNA sequencing, measured: GEM; 75 µM, 24 h; reference: DMSO): 2.45
CCCCCCCCCCCCOc1c(O)cc(C(=O)OC2Cc3c(O)cc(O)cc3OC2c2cc(O)c(O)c(O)c2)cc1O (centres unmarked)  protein level (U-87 MG; Western blot, measured: BCL-XL; 50 µM, 24 h; reference: untreated): decreased
CC(=O)O[C@H]1CC[C@]2(C)[C@H]3C(=O)C=C4[C@@H]5C[C@@](C)(C(=O)OCc6ccccc6)CC[C@]5(C)CC[C@@]4(C)[C@]3(C)CC[C@H]2C1(C)C  MDC fluorescence intensity (HepG2; autophagy, flow cytometry; 4 µM, 24 h, unit not given; reference: untreated): 1460
Cc1c2ccnc(C(=O)N[C@H](C)CN(C)C)c2cc2c3cc(OCCCN4CCN(C)CC4)ccc3n(C)c12  r(G4C2)exp foci per nucleus (C9orf72 ALS patient-derived LCLs; RNA FISH; 0.05 µM): 0.1 ± 0.2
COc1cc([C@@H]2OC[C@@H]3[C@H]2CO[C@H]3c2cc(OC)c(O)c(OC)c2)cc(OC)c1O  glucose consumption (HepG2, palmitic acid-induced insulin resistance; 15 µM, 24 h): 9.76 ± 0.48 mM
CC(=O)OC[C@H]1O[C@@H](Sc2sc(C(=O)c3ccc(C)cc3)c(N)c2-c2nc3ccccc3s2)[C@H](OC(C)=O)[C@@H](OC(C)=O)[C@H]1OC(C)=O  growth (M14; SRB; 10 µM, 48 h; reference: untreated): 92.7%
CC(C)=CCc1c(O)cc2c(c1O)C(=O)OC2  glucose consumption (HepG2, palmitic acid-induced insulin resistance; 12.5 µM, 24 h): 10.6 ± 0.84 mM
CC(=O)N[C@H](C(=O)N[C@H](C(=O)N[C@@H](CCCNC(=N)N)C(=O)N1Cc2ccccc2C[C@H]1C(=O)N[C@@H](Cc1ccccc1)C(N)=O)C1CCCCC1)C(C)C  cytokine level (MBP-specific BC-3 T cells; Bio-Plex multiplex, measured: IL-7; 200 µg/mL, 24 h, with: MBP87-99 antigen): < 3.7 pg/mL
CO[C@@H]1[C@H](N(C)C(=O)c2ccccc2)C[C@H]2O[C@]1(C)n1c3ccccc3c3c4c(c5c6ccccc6n2c5c31)C(=O)NC4  viable CD19+ B cells (CLL patient B cells; flow cytometry; human; 100 nM; reference: untreated): 17%
CCc1cnc(NC(=O)c2cc(S(=O)(=O)N3CCOCC3)ccc2N(C)CC2CC2)s1  PTK7 and MET N-glycosylation (HCC827 and HCC827-GR; Western blot, measured: PTK7, MET, STAT3 signalling; 10 µM, 24 h): decreased
O=[N+]([O-])c1ccc(/C=N/NC(=S)Nc2ccccc2)s1  cytotoxic concentration (HEL human lung fibroblasts; altered cell morphology, microscopy; confluent cultures): ≥ 20 µM
COc1cc(CNC(=O)C[C@H](C)CCC=C(C)C)ccc1OCc1cn(-c2ccc(Br)cc2)nn1  growth percent (HCC 2998; SRB; 10 µM, 48 h): 95.8%
CC(Cc1ccc(Cl)cc1)=C(c1ccc(Cl)cc1)c1ccc(OCCN(C)C)cc1  growth inhibition (NCI-60 tumour cell lines; 10 µM, mean over cell lines): 51.9%
Nc1c(S(=O)(=O)O)cc(Nc2cccc(S(N)(=O)=O)c2)c2c1C(=O)c1ccccc1C2=O  protein level (primary mouse articular chondrocytes; western blot, measured: Phlpp2; micromass culture; 25 µM, dosed days 4–6 and 4–9): decreased
CCC(=C(c1ccc(Cl)cc1)c1ccc(OCCCN(C)C)cc1)c1ccc(OC)cc1  GI50 (NCI-60 cell lines; NCI five-dose screen; mean over 60 lines): 3.67 µM
Cc1ccc(C(C)C)cc1.[Cl-].[Cl][Ru+].[Ru+].c1ccc(-c2cn(CCCCOc3ccccc3-c3nc4ccccc4s3)nn2)nc1  cells in phase (MCF7; PI flow cytometry, measured: G0/G1 phase; 8 µM, 24 h): 59.6%

Repeated from above:
CC(=C(c1ccc(O)cc1)c1ccc(Cl)cc1)c1ccc(Cl)cc1  growth inhibition (NCI-60 tumour cell lines; 10 µM, mean over cell lines): ≥ 100%
CCC12CCc3c(c4ccccc4n3C)CCN(CC3OC31)C2 (centres unmarked)  TLR4 and MyD88 protein level (BV-2; western blot; concentration not given, with: LPS): inhibited
CCC(=C(c1ccc(Cl)cc1)c1ccc(OCCN2CCCCC2)cc1)c1ccc(Cl)cc1  growth inhibition (NCI-60 tumour cell lines; 10 µM, mean over cell lines): 26.6%
